Results from different studies.
Lines come from different studies, so protocols differ. ± gives the spread as reported.

The tracer uptake of `CN[C@@](C)(C[18F])C(=O)O` is reported as 3.2 %ID/g (A549 tumour model; host not given, heart; 15 min, tumour-bearing).
With `C[C@H]1CNCCc2ccc(Cl)cc21` the plasma concentration was 9.88 ± 0.6 ng/mL (Sprague-Dawley rat, male, plasma; subcutaneous, 1 mg/kg, 120 min).
`Cc1ncc2n1-c1ccc(Cl)cc1C(c1ccccc1F)=NC2` has an AUC(0-inf) of 122 ng·h/mL (healthy men, plasma; oral, 7.5 mg, day 26, geometric mean, added: 14 days post amenamevir).
The AUC(0-t) of `COc1ccc2c(c1)[C@]13CCCC[C@@H]1[C@H](C2)N(C)CC3` is reported as 126 ± 13.2 ng·h/mL (Wistar rat, both sexes, plasma; oral, 5 mg/kg, 2 h after pretreatment, added: single quinidine 2.5 mg/kg).
With `[123I]c1cncc(OC[C@@H]2CCN2)c1` the tissue/plasma ratio was 12.4 (SPECT; human, cerebellum; intravenous bolus, 8.6 mCi; relative to: tissue over plasma).
`CN1CCN(N=O)CC1`: mutagenicity “positive” (Salmonella typhimurium, Escherichia coli; preincubation Ames test; concentration not given, with and without S9).
`C=C1C[C@@H]2[C@H](CC[C@]3(C)C(=O)CC[C@@H]23)[C@@]2(C)C=CC(=O)C=C12`: “median plasma concentration” 12.3 ng/mL (LC-MS/MS; postmenopausal breast cancer women, plasma; oral, 25 mg/day, 2 h, CYP1A1*2 homozygous variant).
For `O=NN1CC[C@@H](c2ccc(F)cc2)[C@H](COc2ccc3c(c2)OCO3)C1`, mutagenicity read “negative” (Salmonella typhimurium, Escherichia coli; preincubation Ames test; concentration not given, with and without S9).
The clearance of `COc1ccsc1CNCC[C@@]1(c2ccccn2)CCOC2(CCCC2)C1` is reported as 705 mL/min (healthy human, normal hepatic function, plasma; intravenous, 1 mg single dose, geometric mean).

A few entries again:
The clearance of `COc1ccsc1CNCC[C@@]1(c2ccccn2)CCOC2(CCCC2)C1` is reported as 705 mL/min (healthy human, normal hepatic function, plasma; intravenous, 1 mg single dose, geometric mean).
